Assay results from different studies.
Lines come from different studies, so protocols differ.
ACVR1B: Activin receptor type-1B (ACVR1B, Homo sapiens, UniProt P36896)
UniProt P36896, sequence (whole entry, looked up): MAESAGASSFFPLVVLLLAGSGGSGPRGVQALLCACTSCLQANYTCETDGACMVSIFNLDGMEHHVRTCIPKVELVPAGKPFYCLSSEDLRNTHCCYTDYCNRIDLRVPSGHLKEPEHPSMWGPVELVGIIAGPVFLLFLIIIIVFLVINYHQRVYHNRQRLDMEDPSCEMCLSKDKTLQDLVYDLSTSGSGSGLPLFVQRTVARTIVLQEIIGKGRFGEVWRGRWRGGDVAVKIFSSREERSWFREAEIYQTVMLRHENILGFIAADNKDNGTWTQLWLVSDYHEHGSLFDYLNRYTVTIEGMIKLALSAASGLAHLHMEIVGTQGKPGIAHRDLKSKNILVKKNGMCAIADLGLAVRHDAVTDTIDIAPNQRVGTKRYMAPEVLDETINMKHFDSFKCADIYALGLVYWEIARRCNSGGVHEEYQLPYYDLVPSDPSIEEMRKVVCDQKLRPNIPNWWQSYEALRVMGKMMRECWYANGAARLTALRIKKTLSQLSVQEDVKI
UniProt P29597, sequence (whole entry, looked up): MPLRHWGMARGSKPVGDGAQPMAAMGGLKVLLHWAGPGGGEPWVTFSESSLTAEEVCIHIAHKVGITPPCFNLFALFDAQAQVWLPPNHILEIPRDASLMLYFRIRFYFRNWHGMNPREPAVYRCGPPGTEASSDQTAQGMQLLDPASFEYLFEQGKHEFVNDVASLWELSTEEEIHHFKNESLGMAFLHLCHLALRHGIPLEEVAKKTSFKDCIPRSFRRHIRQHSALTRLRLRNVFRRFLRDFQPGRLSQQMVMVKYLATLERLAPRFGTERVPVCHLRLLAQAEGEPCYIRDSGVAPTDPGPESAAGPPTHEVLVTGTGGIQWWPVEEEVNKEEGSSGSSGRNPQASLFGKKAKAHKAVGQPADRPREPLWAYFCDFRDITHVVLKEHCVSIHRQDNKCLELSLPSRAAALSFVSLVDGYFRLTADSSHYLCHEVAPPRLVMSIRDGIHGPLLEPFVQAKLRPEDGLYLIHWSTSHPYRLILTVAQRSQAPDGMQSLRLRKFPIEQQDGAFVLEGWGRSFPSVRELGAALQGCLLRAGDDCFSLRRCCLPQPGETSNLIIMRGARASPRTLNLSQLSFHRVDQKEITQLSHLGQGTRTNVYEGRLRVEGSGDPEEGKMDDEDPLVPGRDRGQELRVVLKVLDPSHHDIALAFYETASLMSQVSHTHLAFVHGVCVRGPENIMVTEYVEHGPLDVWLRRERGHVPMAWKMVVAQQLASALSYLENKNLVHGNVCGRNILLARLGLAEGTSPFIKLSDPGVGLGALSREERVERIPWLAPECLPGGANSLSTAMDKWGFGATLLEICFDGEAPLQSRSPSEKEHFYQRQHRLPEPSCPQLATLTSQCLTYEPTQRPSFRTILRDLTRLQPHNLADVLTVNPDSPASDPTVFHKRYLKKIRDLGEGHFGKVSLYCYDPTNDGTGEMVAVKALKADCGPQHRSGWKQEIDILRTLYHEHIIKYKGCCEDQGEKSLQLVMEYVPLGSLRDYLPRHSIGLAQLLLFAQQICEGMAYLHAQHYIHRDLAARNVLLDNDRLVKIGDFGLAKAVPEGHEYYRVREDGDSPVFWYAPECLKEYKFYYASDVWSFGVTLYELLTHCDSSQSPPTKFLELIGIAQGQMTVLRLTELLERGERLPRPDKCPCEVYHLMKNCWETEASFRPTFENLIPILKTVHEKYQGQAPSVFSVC
UniProt Q09013, sequence (whole entry, looked up): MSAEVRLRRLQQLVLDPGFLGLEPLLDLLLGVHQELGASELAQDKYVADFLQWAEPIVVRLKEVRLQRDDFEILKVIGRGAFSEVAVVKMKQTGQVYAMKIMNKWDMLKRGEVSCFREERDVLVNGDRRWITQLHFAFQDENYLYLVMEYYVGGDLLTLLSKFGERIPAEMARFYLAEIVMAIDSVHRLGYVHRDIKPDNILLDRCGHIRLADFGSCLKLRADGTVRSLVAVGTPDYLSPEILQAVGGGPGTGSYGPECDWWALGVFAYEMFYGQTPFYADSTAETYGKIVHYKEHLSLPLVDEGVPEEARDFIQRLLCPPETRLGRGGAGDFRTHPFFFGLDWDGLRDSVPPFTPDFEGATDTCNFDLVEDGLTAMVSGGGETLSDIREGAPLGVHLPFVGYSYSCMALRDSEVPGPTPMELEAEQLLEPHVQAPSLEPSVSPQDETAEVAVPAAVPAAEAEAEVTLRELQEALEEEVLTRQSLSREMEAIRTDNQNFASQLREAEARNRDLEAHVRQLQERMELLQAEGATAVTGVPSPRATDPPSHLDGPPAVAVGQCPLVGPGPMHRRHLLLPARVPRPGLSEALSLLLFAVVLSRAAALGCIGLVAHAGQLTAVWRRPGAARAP
UniProt P49935, sequence (whole entry, looked up): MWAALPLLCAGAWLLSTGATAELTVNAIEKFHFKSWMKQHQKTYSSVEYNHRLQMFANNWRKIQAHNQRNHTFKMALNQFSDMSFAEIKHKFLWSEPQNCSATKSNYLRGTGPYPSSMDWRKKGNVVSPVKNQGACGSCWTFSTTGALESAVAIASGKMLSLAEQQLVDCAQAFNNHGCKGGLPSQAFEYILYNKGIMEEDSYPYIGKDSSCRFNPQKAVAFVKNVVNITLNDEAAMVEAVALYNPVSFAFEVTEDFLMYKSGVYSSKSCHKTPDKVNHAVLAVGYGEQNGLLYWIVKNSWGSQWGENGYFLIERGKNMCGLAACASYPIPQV
UniProt P33424, sequence (whole entry, looked up): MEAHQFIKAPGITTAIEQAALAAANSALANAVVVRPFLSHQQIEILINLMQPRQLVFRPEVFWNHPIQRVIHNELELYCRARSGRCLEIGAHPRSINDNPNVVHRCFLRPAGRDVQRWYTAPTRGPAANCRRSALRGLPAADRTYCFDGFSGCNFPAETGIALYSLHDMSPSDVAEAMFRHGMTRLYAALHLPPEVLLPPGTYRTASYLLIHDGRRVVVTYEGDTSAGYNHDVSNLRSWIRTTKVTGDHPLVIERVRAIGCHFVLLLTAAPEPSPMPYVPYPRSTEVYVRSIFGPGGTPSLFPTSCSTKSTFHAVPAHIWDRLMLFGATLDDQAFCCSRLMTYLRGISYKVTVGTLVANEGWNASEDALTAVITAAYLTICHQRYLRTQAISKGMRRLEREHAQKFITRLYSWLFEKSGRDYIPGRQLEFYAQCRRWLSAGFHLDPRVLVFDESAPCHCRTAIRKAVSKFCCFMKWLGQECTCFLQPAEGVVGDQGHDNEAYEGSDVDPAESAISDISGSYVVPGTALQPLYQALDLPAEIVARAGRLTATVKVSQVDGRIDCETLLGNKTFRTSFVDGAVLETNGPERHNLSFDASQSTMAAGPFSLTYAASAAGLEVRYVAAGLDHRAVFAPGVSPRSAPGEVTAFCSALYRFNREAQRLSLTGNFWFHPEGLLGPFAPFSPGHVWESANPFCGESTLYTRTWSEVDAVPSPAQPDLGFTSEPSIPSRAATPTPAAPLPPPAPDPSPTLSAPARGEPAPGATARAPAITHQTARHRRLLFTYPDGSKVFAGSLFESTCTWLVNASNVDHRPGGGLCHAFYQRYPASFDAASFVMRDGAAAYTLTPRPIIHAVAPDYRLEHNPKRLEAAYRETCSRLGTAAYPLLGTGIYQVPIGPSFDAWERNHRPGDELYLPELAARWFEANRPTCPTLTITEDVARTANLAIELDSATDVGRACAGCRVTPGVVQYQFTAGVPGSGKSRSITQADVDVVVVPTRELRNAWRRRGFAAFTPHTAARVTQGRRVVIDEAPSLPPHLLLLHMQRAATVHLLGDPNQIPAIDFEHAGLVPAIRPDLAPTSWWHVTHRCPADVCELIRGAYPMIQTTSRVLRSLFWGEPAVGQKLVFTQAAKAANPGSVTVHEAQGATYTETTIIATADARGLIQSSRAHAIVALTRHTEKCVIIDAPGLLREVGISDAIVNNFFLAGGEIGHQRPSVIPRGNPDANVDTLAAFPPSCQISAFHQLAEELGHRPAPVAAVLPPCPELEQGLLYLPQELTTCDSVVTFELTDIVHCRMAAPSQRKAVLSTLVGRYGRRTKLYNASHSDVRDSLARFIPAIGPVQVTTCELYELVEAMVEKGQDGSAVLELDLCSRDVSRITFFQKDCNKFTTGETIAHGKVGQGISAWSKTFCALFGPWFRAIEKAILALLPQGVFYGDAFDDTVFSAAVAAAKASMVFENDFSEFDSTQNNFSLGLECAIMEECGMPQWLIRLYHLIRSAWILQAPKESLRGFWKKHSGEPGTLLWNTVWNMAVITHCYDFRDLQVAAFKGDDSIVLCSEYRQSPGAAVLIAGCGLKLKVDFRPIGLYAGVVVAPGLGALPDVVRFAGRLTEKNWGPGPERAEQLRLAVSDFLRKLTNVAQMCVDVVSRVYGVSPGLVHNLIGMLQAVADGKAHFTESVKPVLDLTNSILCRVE

Cc1cc(Nc2cc(N3CCN(C)CC3)nc(Sc3ccc(NC(=O)C4CC4)cc3)n2)[nH]n1
remaining activity (ACVR1B; kinase activity, KinaseProfiler; 0.03 µM, species human; relative to: control): 100%

O=C(NC1CCC1)c1ccc2nc(-c3cccc(NS(=O)(=O)NCCN4CCCCC4)c3)cn2c1
remaining activity (ACVR1B; enzyme activity; 10 µM): 100%

COc1cc(F)ccc1-c1ncnc(Nc2cccc(C[S@](C)(=N)=O)c2)n1
remaining activity (DMPK (Homo sapiens, UniProt Q09013); kinase activity; 10 µM, together with: 10 µM ATP): 94%

COc1cc(Nc2ncc3c(n2)-c2ccc(Cl)cc2C(c2c(F)cccc2OC)=NC3)ccc1C(=O)O
remaining activity (PTK2; kinase activity; 1 µM): 27%

Cc1cccc(C)c1C(=O)OCC(=O)[C@H](CCCCN)NC(=O)[C@H](CCCNC(=N)N)NC(=O)OCc1ccccc1
remaining activity (Pro-cathepsin H (Ctsh, Mus musculus, UniProt P49935); inhibitor; 0.1 µM, together with: AMC fluorogenic substrate; relative to: untreated): 95%

COc1cc(-c2cncc3c2CN(C)Cc2cc(N4CCNCC4)ccc2-3)cc(OC)c1OC
remaining activity (TYK2 (Homo sapiens, UniProt P29597); kinase activity; 1 µM, human enzyme, together with: ATP 10 µM; relative to: DMSO control): 103%

NC(=O)c1ncn([C@@H]2O[C@H](CO[P@@](=O)(O)O[P@](=O)(O)OP(=O)(O)O)[C@@H](O)[C@H]2O)n1
remaining activity (Non-structural polyprotein pORF1, RNA-dependent RNA polymerase (Hepatitis E virus genotype 1, UniProt P33424); polymerase activity, inhibitor, colorimetric; 28 µM; relative to: untreated): 71.5%

CNc1ncc2c(/C=C/C(=O)N3CCC(OC)CC3)nn(Cc3cccc(C(F)(F)F)c3)c2n1
remaining activity (PRKCZ (Homo sapiens, UniProt Q05513); kinase activity, inhibitor; 1 µM; relative to: untreated control): 100%

O=C1NC(=O)/C(=C/c2ccc(-c3ccc(F)cc3O)o2)S1
remaining activity (PIM3 (Homo sapiens, UniProt Q86V86); enzyme activity; 10 µM): 7%

O=C(O)c1ccc(Nc2ncc3c(n2)-c2ccc(Cl)cc2C(c2c(F)cccc2F)=NC3)cc1
remaining activity (FAK(h); kinase activity; 1 µM): 110%

Repeated from above:
NC(=O)c1ncn([C@@H]2O[C@H](CO[P@@](=O)(O)O[P@](=O)(O)OP(=O)(O)O)[C@@H](O)[C@H]2O)n1
remaining activity (Non-structural polyprotein pORF1, RNA-dependent RNA polymerase (Hepatitis E virus genotype 1, UniProt P33424); polymerase activity, inhibitor, colorimetric; 28 µM; relative to: untreated): 71.5%
